Measured values from different studies.
Every numbered part comes from another study and shows a few of its results, in no order. Substitutions count along the parent as printed.
Sequence of UniProt Q9FX25 (whole entry, looked up): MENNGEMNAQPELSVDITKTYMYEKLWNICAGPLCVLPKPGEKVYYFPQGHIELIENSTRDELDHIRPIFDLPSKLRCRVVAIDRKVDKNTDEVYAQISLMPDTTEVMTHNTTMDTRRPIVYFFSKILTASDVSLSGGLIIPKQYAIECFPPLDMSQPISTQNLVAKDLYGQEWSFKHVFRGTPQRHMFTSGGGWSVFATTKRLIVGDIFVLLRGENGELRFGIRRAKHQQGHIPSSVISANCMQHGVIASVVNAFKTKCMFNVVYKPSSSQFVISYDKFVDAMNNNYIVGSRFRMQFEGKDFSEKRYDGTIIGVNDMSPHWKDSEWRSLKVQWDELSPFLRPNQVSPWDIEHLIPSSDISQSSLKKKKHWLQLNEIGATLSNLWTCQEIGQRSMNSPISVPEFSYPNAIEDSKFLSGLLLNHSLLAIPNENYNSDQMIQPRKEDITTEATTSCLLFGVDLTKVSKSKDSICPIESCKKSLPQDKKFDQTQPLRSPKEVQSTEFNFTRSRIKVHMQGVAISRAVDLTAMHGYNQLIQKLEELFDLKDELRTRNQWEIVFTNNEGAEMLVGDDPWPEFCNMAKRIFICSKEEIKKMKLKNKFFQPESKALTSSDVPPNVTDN
Sequence of UniProt P93022 (whole entry, looked up): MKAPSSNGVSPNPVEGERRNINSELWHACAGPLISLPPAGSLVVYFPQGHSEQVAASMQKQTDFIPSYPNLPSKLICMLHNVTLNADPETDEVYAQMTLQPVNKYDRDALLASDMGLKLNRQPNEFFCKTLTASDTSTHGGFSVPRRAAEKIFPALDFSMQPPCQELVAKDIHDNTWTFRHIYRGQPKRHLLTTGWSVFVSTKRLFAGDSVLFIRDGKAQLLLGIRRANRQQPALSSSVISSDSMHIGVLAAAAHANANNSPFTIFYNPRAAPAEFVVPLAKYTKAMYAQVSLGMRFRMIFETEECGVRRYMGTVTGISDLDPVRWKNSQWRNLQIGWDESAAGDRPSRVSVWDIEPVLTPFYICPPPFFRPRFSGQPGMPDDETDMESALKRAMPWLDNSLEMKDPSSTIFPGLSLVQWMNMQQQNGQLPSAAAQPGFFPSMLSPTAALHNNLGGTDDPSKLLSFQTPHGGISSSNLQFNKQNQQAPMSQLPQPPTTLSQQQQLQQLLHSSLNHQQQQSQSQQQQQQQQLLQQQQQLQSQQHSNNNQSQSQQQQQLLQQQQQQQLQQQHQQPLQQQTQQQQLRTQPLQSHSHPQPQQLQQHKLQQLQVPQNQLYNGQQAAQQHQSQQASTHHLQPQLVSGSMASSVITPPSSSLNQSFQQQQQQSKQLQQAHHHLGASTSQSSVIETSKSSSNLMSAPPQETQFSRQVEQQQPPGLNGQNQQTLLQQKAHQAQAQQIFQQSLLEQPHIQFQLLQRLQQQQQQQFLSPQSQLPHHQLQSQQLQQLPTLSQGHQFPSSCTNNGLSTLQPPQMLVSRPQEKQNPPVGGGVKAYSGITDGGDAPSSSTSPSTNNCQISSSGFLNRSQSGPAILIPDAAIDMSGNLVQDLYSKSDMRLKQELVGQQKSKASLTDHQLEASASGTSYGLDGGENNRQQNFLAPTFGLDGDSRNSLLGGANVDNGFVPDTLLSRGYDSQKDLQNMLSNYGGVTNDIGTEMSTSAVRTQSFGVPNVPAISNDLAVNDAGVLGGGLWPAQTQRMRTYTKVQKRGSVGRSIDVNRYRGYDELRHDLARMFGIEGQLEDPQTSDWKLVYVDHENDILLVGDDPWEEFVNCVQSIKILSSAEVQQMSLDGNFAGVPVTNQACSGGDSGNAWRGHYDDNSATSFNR
Sequence of UniProt Q9ZPY6 (whole entry, looked up): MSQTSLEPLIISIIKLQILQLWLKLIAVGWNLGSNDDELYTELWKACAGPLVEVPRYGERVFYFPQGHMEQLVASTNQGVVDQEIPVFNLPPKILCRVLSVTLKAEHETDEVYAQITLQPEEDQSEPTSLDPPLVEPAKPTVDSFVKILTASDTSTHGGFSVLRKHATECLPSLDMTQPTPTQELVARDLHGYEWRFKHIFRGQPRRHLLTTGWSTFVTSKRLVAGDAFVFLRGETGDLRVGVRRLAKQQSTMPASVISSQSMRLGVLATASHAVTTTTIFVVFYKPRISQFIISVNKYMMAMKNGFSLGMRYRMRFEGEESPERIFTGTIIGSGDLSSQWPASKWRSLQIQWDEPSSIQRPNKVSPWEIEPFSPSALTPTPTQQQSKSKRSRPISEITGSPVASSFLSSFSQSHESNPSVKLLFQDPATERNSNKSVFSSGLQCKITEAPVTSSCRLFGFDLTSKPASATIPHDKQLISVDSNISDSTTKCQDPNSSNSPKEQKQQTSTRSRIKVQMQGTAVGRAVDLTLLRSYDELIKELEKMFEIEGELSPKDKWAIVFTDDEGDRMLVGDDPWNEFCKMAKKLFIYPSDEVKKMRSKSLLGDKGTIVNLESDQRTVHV

Study 1
Target: CCND1, cyclin fold, Cln2 fusion (human)
Method: yeast growth competition, sequencing
Sample: yeast
Setting: strong parent motif
Baseline: not given
Direction: higher = stronger binding
Endpoint: normalised enrichment score
Starting sequence: CDC42EP1 docking peptide (human); SLVVGKLSFDSSP; partner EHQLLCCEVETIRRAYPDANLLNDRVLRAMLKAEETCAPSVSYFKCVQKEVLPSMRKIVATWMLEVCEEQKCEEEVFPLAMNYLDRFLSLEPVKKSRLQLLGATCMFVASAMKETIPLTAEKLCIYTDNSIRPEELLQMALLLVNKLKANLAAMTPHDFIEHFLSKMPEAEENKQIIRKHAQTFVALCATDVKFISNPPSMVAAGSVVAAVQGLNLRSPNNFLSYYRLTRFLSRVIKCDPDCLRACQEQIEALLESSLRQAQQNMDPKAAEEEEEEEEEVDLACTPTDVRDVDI
S12A: 0.696
S8A: 0.739
L7A: 0.391
F9A: 0.976
D10A: 0.588
V3A: 0.767
G5A: 0.787

Study 2
Sequence: B1 (IAA9)
Method: two-hybrid
Direction: higher = firmer interaction
Endpoint: positive tests
B1: IAA9 (Arabidopsis thaliana, UniProt Q38827); chain MSPEEELQSNVSVASSSPTSNCISRNTLGGLKEHNYLGLSDCSSVGSSTLSPLAEDDKATISLKATELTLGLPGSQSPARDTELNLLSPAKLDEKPFFPLLPSKDEICSSSQKNNASGNKRGFSDTMDQFAEAKSSVYTEKNWMFPEAAATQSVTKKDVPQNIPKGQSSTTNNSSSPPAAKAQIVGWPPVRSYRKNTLATTCKNSDEVDGRPGSGALFVKVSMDGAPYLRKVDLRSYTNYGELSSALEKMFTTFTLGQCGSNGAAGKDMLSETKLKDLLNGKDYVLTYEDKDGDWMLVGDVPWEMFIDVCKKLKIMKGCDAIGLAAAPRAMEKSKMRA
ARF11 500-622 (Arabidopsis thaliana, UniProt Q9ZPY6); baseline: out of 4 tests: 1
ARF13 (Arabidopsis thaliana, UniProt Q9FX25); baseline: out of 4 tests: 1
ARF7 1030-1164 (Arabidopsis thaliana, UniProt P93022); baseline: out of 0 tests: 0

Study 3
Target: Ras GTPase-activating protein-binding protein 1, full length (G3BP1, Homo sapiens, UniProt Q13283)
Sequence of UniProt Q13283 (whole entry, looked up): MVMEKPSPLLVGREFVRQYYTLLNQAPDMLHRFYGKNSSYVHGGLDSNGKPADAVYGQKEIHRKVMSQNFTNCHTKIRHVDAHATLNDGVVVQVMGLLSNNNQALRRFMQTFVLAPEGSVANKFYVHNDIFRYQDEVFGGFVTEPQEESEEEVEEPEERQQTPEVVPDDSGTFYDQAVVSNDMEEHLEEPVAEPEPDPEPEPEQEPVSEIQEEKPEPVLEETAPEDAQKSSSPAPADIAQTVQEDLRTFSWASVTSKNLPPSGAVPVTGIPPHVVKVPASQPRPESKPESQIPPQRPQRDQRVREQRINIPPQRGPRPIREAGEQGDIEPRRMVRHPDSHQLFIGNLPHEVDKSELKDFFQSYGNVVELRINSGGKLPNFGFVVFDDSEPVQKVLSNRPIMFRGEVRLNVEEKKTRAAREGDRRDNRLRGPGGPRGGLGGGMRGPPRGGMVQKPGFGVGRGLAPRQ
Method: RNA Bind-n-Seq
Molecule type: RNA
Sample: in vitro
Concentration: 200 nM
Setting: whole 134-nt RNA, ends assumed
With: 150 mM KCl
Baseline: input library
Direction: higher = stronger binding
Endpoint: log2 enrichment
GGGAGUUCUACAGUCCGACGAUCCACAGACAACACUCACCCACACAGACACAGAGGGAAGGGGUUGGGAUGGGGACAGGGUGCACAGCAGGGCGGGGUAGGACCCCAGCCCCUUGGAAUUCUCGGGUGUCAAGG: 1.74
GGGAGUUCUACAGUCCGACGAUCGUCCUGUGCUACACAUCGUAUGUACCGAAUCGGGUUUUUUUGGGUUUGGGAAAAAGGGAAAGUAUUAUGUUACGCCGUUCGGAUCUGCACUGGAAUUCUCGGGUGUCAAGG: -0.486
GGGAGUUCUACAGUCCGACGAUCGCAGGAAGUAAAAACAAUUGGAAAUGCUUCGGAUAGUGGCAGGGGUGGGGGUUGCUAAGGAAAGGGUGGGAUGGGAGUGGGUAAAGAGUUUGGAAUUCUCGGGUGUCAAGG: 0.755
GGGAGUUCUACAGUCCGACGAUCCACAGACAACACGCACCCACACAGACACAGAGGGAAGGGGUUGGGAUGGGUACAGGGUGCACAGCAGGGCGGGGUAGGACCCCAGCCCCUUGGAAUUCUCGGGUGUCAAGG: 1.88
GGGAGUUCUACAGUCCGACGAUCCAAGUCCUGUGCUACACAUCGUAUGUACCGAAUCGGAAAAAGGUUUUUUUGGAGGAAAGUAUUAUGUUACGCCGUUCGGAUCUGCACUUCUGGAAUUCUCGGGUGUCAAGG: -1.24
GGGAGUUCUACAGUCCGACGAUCUUACUACCUCCGCCUUCAUUUCCGUCAGCAAUCCCGGCGCGGGCUCCCCGGCCCCCGCCAGCCCGCCUCCCCUCGCUGUGCCCGGGACCGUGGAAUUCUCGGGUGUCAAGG: 0.718
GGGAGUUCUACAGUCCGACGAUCUCAAGUCCUGUGCUACACAUCGUAUGUACCGAAUCGGAAAGGAAAGGAAAGGGGAAAGUAUUAUGUUACGCCGUUCGGAUCUGCACUUCCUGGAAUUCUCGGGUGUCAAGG: -0.803
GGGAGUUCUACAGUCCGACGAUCCACAGACAACACGCACCCACACAGACACAGAGGGAAGGGGUUGGGAUGGGGACAGGGUGCACAGCAGGGCGGGGUAGGACUCCAGCCCCUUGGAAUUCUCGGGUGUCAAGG: 1.98
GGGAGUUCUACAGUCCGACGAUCAGUCCUGUGCUACACAUCGUAUGUACCGAAUCGGUUUUUUUGGUUUGGUUUUUUUGGAAAGUAUUAUGUUACGCCGUUCGGAUCUGCACUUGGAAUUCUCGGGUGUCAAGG: -1.29

Study 4
Target: Centromere-binding protein 1, full length, N-terminal tag (CBF1, Saccharomyces cerevisiae, UniProt P17106, residues 1-351)
Sequence of UniProt P17106 (whole entry, looked up): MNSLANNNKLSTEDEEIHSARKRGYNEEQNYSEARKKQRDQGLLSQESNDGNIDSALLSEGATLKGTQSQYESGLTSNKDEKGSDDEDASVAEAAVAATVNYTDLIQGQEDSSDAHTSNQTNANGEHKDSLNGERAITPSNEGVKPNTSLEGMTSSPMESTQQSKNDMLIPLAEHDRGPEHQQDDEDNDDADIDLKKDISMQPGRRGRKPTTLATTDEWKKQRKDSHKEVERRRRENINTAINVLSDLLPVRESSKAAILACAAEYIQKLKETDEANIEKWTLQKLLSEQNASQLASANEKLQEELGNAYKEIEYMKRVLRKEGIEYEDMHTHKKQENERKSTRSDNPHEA
Method: protein-binding microarray
Molecule type: double-stranded DNA, one strand shown
Sample: in vitro
Concentration: 0.8 µM
Setting: whole 60-bp probe, no competitor
Direction: higher = stronger binding
Endpoint: fluorescence intensity
GAAAAGGTATTGGGCCATGACGTCAGATCCTGGTAGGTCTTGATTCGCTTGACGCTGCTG: 504 a.u.
CTACATCGCAATATGAAGATCACAGAAAAATTATTCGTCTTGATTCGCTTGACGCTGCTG: 552 a.u.
CTAGCCAAGCATTATCAGGTGCCCATAAATAACTTCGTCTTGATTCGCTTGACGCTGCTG: 1270 a.u.
GAATTTTCCAAAACAAGCGTGTCATGTGAGCTTTAGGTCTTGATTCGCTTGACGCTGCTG: 3420 a.u.
GAATACGAGATCGTACAGGAGATGGAAGAATATTAGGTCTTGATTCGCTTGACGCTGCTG: 495 a.u.
CTATTGAAAGAATCTCACCTGGAGAATGGGTGTTTCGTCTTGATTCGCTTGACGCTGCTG: 557 a.u.
GAAAGGAGTGGAGTAGTCGTGCTATATAGGGCATAGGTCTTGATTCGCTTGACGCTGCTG: 530 a.u.
GAACTACTTTCAGATGCGCTGATGGGCGTGCTTTAGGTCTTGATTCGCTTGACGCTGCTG: 531 a.u.
CTAATTACTAGGCATGATGTATGGAGGAACTTGTTCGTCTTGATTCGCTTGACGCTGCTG: 551 a.u.
GAAGTGCTTGCTGTGAAGGTGGTGCGTACTGTTTAGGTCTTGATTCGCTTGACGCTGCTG: 515 a.u.
GAAAATATCAAACGTGTTGTATTACGGGCTCGATAGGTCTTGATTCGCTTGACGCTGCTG: 579 a.u.
GAAAAATGATTTCGACAGGTGACCTTTAAGTTCTAGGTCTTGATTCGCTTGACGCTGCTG: 1710 a.u.
GAAACAATAGAAAGAAACGTGGAAATTATTTAATAGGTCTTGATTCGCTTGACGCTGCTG: 561 a.u.
GAAATATTTTGACGTGACGTGGTTTATTAGCAATAGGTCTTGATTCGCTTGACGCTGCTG: 935 a.u.
TGTACGAAGCTATCCCACGATAATATAGTAGTTAGGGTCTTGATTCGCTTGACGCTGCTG: 494 a.u.
GAACGAATAGTTCGTCAGGTGCCAGCACTGAGATAGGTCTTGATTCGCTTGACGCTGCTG: 1620 a.u.
CTAACGCAAGCAAGAGGTGACACATAAACATAGTTCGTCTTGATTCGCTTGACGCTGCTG: 508 a.u.
CTAATGCTTGCATCGTGCATGAATACATACCGCTTCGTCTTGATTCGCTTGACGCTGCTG: 547 a.u.
TGTACGAAGCTATTGTTCGTGGGTATAGTAGTTAGGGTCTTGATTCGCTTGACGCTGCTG: 525 a.u.

Repeated from above (study 4):
GAAAGGAGTGGAGTAGTCGTGCTATATAGGGCATAGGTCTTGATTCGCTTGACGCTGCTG: 530 a.u.
GAACGAATAGTTCGTCAGGTGCCAGCACTGAGATAGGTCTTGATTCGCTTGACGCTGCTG: 1620 a.u.
